# Results collected from several papers.
# Lines come from different studies, so protocols differ. Values joined by “and” are separate records of one study, mostly repeats; a detail may differ. Numbers after ± are the reported error.
SMILES,test,system,conditions,quantity,value
O=C1NC2(CC2)COc2ncc(F)cc2[C@H]2COCCN2c2ccn3ncc1c3n2,,"Sprague-Dawley rat, female, thymus","oral, 20 mg/kg/day, 4 weeks, end of treatment",organ-to-brain weight ratio,27.4 ± 7.1%
COc1cnc2cccc(N3CCc4c(cc(Cn5ccnc5)cc4-c4cn(C)nc4C(F)(F)F)C3=O)c2c1,,"BALB/c nude mice, MV4-11 xenograft","intraperitoneal, 75 mg/kg, day 35",body weight,24.2 g and 21.3 g and 24 g and 25.9 g and 21 g
C/C(=N\OCCCN1CCCCC1)c1ccc(C(F)(F)F)cc1,,"mouse, plasma","oral, 50 mg/kg once daily, day 7",Cmax,800 ± 107 ng/mL
CC(C)[C@@H]1NC(=O)CNC(=O)[C@H](CC(N)=O)NC(=O)[C@H](CCCNC(=N)N)NC(=O)[C@H](Cc2ccc(O)cc2)NC(=O)[C@H](C(C)C)NC(=O)[C@@H](NC(=O)[C@@H](NC(=O)[C@H](CC(N)=O)NC(=O)[C@H](Cc2c[nH]c3ccccc23)NC(=O)[C@H](C)NC(=O)[C@H](Cc2ccccc2)NC(=O)CNC(=O)[C@H](CCCCN)NC(=O)[C@H](Cc2ccccc2)NC(=O)[C@H](Cc2ccccc2)NC(=O)[C@H](CCCCN)NC(=O)OCC2c3ccccc3-c3ccccc32)C(C)C)CSSC[C@@H](C(=O)N[C@@H](Cc2c[nH]cn2)C(=O)N[C@@H](CCCNC(=N)N)C(=O)N[C@@H](CCCNC(=N)N)C(=O)N[C@@H](C)C(=O)N[C@@H](CC(N)=O)C(N)=O)NC(=O)[C@H](C(C)C)NC(=O)[C@H](CCCNC(=N)N)NC1=O,,"ICR mouse, blood","intramammary, 10 mg/kg, day 5, 3 d dosing",AST/ALT ratio,0.58 ± 0.03
CC(C)[C@@H]1NC(=O)[C@H](Cc2ccc(O)cc2)NC(=O)[C@H](Cc2ccccc2)NC(=O)[C@H]([C@@H](C)O)NC(=O)[C@@H](Cc2ccc(O)cc2)NC(=O)CSC[C@H](C(=O)NCCOCCOCCOCCOCCOCCOCCC(N)=O)NC(=O)[C@H](C)NC(=O)[C@H](CO)NC(=O)[C@@H]2CCC[C@@H]2NC(=O)[C@H](Cc2c[nH]cn2)NC(=O)[C@H](CCCNC(=N)N)NC(=O)[C@H](Cc2ccc(O)cc2)NC(=O)[C@H]([C@@H](C)O)NC(=O)[C@H](Cc2ccccc2)NC(=O)[C@H]([C@@H](C)O)NC(=O)[C@H](Cc2ccc(O)cc2)NC(=O)[C@H](Cc2ccccc2)NC1=O,,simulated intestinal fluid,"pH 6.8, 37 °C, together with: pancreatin",time to complete degradation,< 10 min
CC(C)C[C@@H](NC(=O)[C@@H](CCCNC(=N)N)NC(=O)[C@@H](Cc1c[nH]cn1)NC(=O)[C@@H](Cc1c[nH]c2ccccc12)NC(=O)[C@@H](Cc1c[nH]cn1)NC(=O)[C@@H](Cc1ccccc1)NC(=O)[C@H](NC(=O)[C@@H](Cc1ccc(O)cc1)NC(=O)CNC(=O)CNC(=O)CCOCCOCCOCCNC(=O)CN1CCN(CC(=O)O)CCN(CC(=O)O)CC1)[C@H](C)O)C(=O)N[C@H](CC(N)=O)C(=O)N1CCC[C@@H]1C(=O)O [gallium-68 labelled],,"C57BL/6 mice, male, liver","intravenous, 1.85 MBq, 60 min, together with: blocking antibody",tissue uptake,1.07 ± 0.14 %ID/g
CSCC[C@H](NC(=O)CNC(=O)[C@H](CCCCN)NC(=O)[C@H](CC(C)C)NC(=O)[C@@H]1CCCN1C(=O)[C@H](CO)NC(=O)[C@H](Cc1c[nH]cn1)NC(=O)[C@H](Cc1c[nH]c2ccccc12)NC(=O)[C@H](CCCNC(=N)N)NC(=O)[C@H](CC(C)C)NC(=O)[C@H](CCCNC(=N)N)NC(=O)[C@H](Cc1c[nH]c2ccccc12)NC(=O)[C@H](CS)NC(=O)CCCCCNC(=O)CN1CCN(CC(=O)O)CCN(CC(=O)O)CCN(CC(=O)O)CC1)C(=O)O [copper-64 labelled],,"BALB/c nude mouse, Huh-7 tumour, small intestine","intravenous, 1 h, ex vivo biodistribution",tissue uptake,5.79 %ID/g
CC1(C)C(NC(=O)C(=NOC2(C(=O)O)CC2)c2csc(N)n2)C(=O)N1OS(=O)(=O)O (stereo not shown),,zebrafish embryos,"microinjection, 5 dpf",LD50,> 1.69 nmol/embryo
C=C/C=C/C[C@@H](C)[C@@H](O)[C@H]1C(=O)N[C@@H](CC)C(=O)N(C)CC(=O)N(C)[C@@H](CC(C)C)C(=O)N[C@@H](C(C)C)C(=O)N(C)[C@@H](CC(C)C)C(=O)N[C@@H](C)C(=O)N[C@H](C)C(=O)N(C)[C@@H](CC(C)C)C(=O)N(C)[C@@H](CC(C)C)C(=O)N(C)[C@@H](C(C)C)C(=O)N1C,,"Wistar Kyoto rat, male, plasma","ip, 0.5 mg/kg/day, day 28, at sacrifice",plasma K+ level,4.6 ± 0.3 mmol/L
CCCCCCCCCCCCCCCC(=O)N[C@@H](CCC(=O)NCCOCCOCCC(=O)NCCOCCOCCC(=O)NCCCC[C@H](NC(=O)[C@H](CC(=O)O)NC(=O)[C@H](CC(C)C)NC(=O)[C@H](Cc1ccc(O)cc1)NC(=O)[C@H](CCCCN)NC(=O)[C@H](CO)NC(=O)[C@H](Cc1ccc(O)cc1)NC(=O)[C@H](CC(=O)O)NC(=O)[C@H](CO)NC(=O)[C@@H](NC(=O)[C@H](Cc1ccccc1)NC(=O)[C@@H](NC(=O)CNC(=O)[C@H](CCC(N)=O)NC(=O)[C@@H](CO)NC(=O)[C@@H](N)Cc1c[nH]cn1)[C@@H](C)O)[C@@H](C)O)C(=O)N[C@@H](CCCNC(=N)N)C(=O)N[C@@H](CCCNC(=N)N)C(=O)N[C@@H](C)C(=O)N[C@@H](CCC(N)=O)C(=O)N[C@@H](CC(=O)O)C(=O)N[C@@H](Cc1ccccc1)C(=O)N[C@H](C(=O)N[C@@H](CCC(N)=O)C(=O)N[C@@H](Cc1c[nH]c2ccccc12)C(=O)N[C@@H](CC(C)C)C(=O)N[C@@H](CC(C)C)C(=O)N[C@@H](CC(N)=O)C(=O)N[C@H](C(=O)NCC(=O)NCC(=O)N1CCC[C@H]1C(=O)N[C@@H](CO)C(=O)N[C@@H](CO)C(=O)NCC(=O)N[C@@H](C)C(=O)N1CCC[C@H]1C(=O)N1CCC[C@H]1C(=O)N1CCC[C@H]1C(=O)N[C@@H](CO)C(N)=O)[C@@H](C)O)C(C)C)C(=O)O,refers to: ALP,"Sprague-Dawley rat, male","subcutaneous, 100 µg/kg once daily, 14 days",serum enzyme activity,174 ± 95.5 U/L
CC[C@H](C)[C@H](NC(=O)CN)C(=O)N[C@@H](CCCNC(=N)N)C(=O)N[C@@H](CCCCN)C(=O)N[C@@H](Cc1c[nH]c2ccccc12)C(=O)N[C@@H](Cc1ccccc1)C(=O)N[C@@H](CCCCN)C(=O)N[C@@H](CCCCN)C(=O)N[C@@H](C)C(=O)N[C@@H](C)C(=O)N[C@@H](Cc1c[nH]cn1)C(=O)N[C@H](C(=O)NCC(=O)N[C@@H](CCCCN)C(=O)N[C@@H](CCCCN)C(=O)N[C@H](C(=O)NCC(=O)N[C@@H](CCCCN)C(=O)N[C@H](C(=O)N[C@@H](C)C(=O)N[C@@H](CC(C)C)C(=O)N[C@@H](CC(N)=O)C(=O)N[C@@H](C)C(=O)N[C@@H](Cc1ccc(O)cc1)C(=O)N[C@@H](CC(C)C)C(N)=O)C(C)C)C(C)C)C(C)C,,"zebrafish embryos 4 hpf, E3 medium",1 h,acute toxic concentration,25 µM
CN1Cc2cc(Cl)ccc2-n2c(nnc2C2CCN(c3cccc([18F])n3)CC2)C1,PET two-tissue compartment model,"rhesus monkey, striatum","intravenous, dose not given, 60 min scan, baseline scan",total volume of distribution,1.05 ± 0.29 mL/cm3
CCCC[C@H]1C(=O)N(C)[C@@H](CCCC)C(=O)N[C@@H](CCCCNC(=S)Nc2ccc(CN3CCN(CC(=O)O)CCN(CC(=O)O)CC3)cc2)C(=O)N[C@H](C(=O)NCC(N)=O)CSCC(=O)N[C@@H](Cc2ccc(O)cc2)C(=O)N(C)[C@@H](C)C(=O)N[C@@H](CC(N)=O)C(=O)N2CCC[C@H]2C(=O)N[C@@H](Cc2cnc[nH]2)C(=O)N[C@@H](CCC(=O)O)C(=O)N2C[C@H](O)C[C@H]2C(=O)N[C@@H](Cc2c[nH]c3ccccc23)C(=O)N[C@@H](CO)C(=O)N[C@@H](Cc2cn(CC(=O)O)c3ccccc23)C(=O)N1C [fluorine-18 labelled],"region of interest, PET/CT","HCT-116 MSI xenograft, huPBMC NSG mouse, female, tumour","intravenous, 60 min, together with: saline treated",median tumour uptake,5.56 %ID/mL

# Some of these lines once more:
SMILES,test,system,conditions,quantity,value
COc1cnc2cccc(N3CCc4c(cc(Cn5ccnc5)cc4-c4cn(C)nc4C(F)(F)F)C3=O)c2c1,,"BALB/c nude mice, MV4-11 xenograft","intraperitoneal, 75 mg/kg, day 35",body weight,24.2 g and 21.3 g and 24 g and 25.9 g and 21 g
C/C(=N\OCCCN1CCCCC1)c1ccc(C(F)(F)F)cc1,,"mouse, plasma","oral, 50 mg/kg once daily, day 7",Cmax,800 ± 107 ng/mL
